Measurements collected from several papers.
Parts stem from different laboratories: compare values within a part only.

Block 1 — technique: RNA Bind-n-Seq; form: RNA; medium: in vitro; tested at: 365 nM; relative to: no-protein control; direction: higher = stronger binding
Target: RNA binding protein fox-1 homolog 2, RRM domain, GST-SBP tag (RBFOX2, Homo sapiens, UniProt O43251-10, residues 100-194)
Setting: natural RNA segment, single round, ends assumed
Residues (chain): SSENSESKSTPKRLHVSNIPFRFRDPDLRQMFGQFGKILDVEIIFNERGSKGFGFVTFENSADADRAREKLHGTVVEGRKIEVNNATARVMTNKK
Strand | RBNS enrichment (R)
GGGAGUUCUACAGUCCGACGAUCAAAUGCCAGCCAGGUGCUGGCUGUGGGCUUUCCCUCCUCAACACCCUUAUUUAGAAAGGAAACUGUGUGGGGGGAGAUGCAGGCCUGAGCCCCAUAGCGAGCUUGCCUUUUGGAAUUCUCGGGUGCCAA | 0.415
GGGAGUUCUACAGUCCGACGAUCCUGUCCUUCCUGGUCAUGCUGGCCUCCGAGGCGCGGGCUGGGAUCUGUCAGGCUGCGUAUUUAUUAAGUUUGGCUAUUCUAUAAAGACUUGUAUAUACUUCCGUGGAAAGUGGAAUUCUCGGGUGCCAA | 0.611
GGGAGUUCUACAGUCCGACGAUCCAUGUACUUCACGUUUUCUAUAUUUGUAACUUUGCAUGUAUUUUGUUUUGUCAUAUAAAAAGUUUAUAAAUGUUUGCUAUCAGACUGACAUUAAAUAGAAGCUAUGAUGAUGGAAUUCUCGGGUGCCAA | 28.4
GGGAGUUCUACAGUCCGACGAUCCCAUGUCCUCAGACCCAGCAAAAGCGUAGAGGCAGAAUUAGAGGCCUCUCCAGGCCAGCUCCUCUGCCCACAUGUCAUACAAGGUGUGAAUUUGAGCACAGUCCAGAAAUUGGAAUUCUCGGGUGCCAA | 0.242
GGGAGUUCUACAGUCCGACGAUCCAGCAGCUCAUCGACGACCACUUCCUCUUCGACAAGCCCGUGUCGCCCCUGCUGCUGGCCUCGGGCAUGGCCCGCGACUGGCCCGACGCCCGCGGUAUCUGGCACAAUGAUGGAAUUCUCGGGUGCCAA | 0.343
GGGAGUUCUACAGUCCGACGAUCGCUCUUGGAUGUUGGGAGUGUAGCAGGCACAGGAGGUACCUCUGCAGAAGGAAGGCGGAGGGUGGAGGCCUUGCCUUUCCAUAUUCACCUAGGUCUUGUCUUUCAACUUGUGGAAUUCUCGGGUGCCAA | 1.09
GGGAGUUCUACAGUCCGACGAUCAACCAUAGGCCUGAAGUUCACAUUGGGUCUUUAAAUCUUUUAGAUAUAUACUGGUCAUUUCAGAAAAUUCUUCAUAGUGGUAUUGGCCUUAUAUUUAACUUUUUUUUUAUUGGAAUUCUCGGGUGCCAA | 0.593
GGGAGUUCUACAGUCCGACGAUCAAAGAAUAAAAAUUGACUUCUUGCUUGUACAUAUAGGAGCAAUACUAUUAUAUUAUGUAGUCCGUUAACACUACUUAAAAGUUUAGGGUUUUCUCUUGGUUGUAGAGUGGUGGAAUUCUCGGGUGCCAA | 2.53

Block 2 — technique: protein binding microarray; form: double-stranded DNA, one strand shown; medium: in vitro; tested at: not given; relative to: not given; direction: higher = stronger binding
Target: Histone acetyltransferase KAT6A, both winged helices, GST fusion (KAT6A, Homo sapiens, UniProt Q92794, residues 1-181)
Setting: 8-mer, flanks averaged, mean of 2 arrays, mostly near background
Residues (chain): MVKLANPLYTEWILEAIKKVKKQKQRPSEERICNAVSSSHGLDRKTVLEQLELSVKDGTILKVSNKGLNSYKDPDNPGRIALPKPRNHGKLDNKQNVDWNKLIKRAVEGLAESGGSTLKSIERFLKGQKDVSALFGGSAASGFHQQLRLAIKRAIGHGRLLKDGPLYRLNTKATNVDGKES
Strand | E-score
CGATGACG | 0.093
ACACGGTG | 0.141
ATATGTTG | -0.0385
AGTTGGCA | -0.188
AGAGGCAT | -0.0391
TCCAATCA | -0.0234
ATAGAGAC | -0.138

Block 3 — technique: RNA Bind-n-Seq; form: RNA; medium: in vitro; tested at: not given; setting: RNA with constant flanks, ends assumed; relative to: input RNA pool; direction: higher = stronger binding
Target: RING finger protein unkempt homolog, zinc fingers 1-6, GST-SBP tag (UNK, Homo sapiens, UniProt Q9C0B0, residues 30-357)
Sequence of UniProt Q9C0B0 (30-357, looked up): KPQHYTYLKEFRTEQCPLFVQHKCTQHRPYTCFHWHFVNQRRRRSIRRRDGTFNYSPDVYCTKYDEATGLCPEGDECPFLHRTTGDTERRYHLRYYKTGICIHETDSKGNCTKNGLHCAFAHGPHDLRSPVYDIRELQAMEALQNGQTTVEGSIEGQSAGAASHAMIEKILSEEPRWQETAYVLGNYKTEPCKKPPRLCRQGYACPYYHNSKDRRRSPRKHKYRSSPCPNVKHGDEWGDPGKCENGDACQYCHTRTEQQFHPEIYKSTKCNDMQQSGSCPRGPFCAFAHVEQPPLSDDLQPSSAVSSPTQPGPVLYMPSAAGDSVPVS
Strand | bound/input enrichment [ratio]
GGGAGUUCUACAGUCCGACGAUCUUAGACUGUAAGCUUGCCAAGGGCAGGGACUGUGUUUUAUUCAUCUGUAUCCAUCACAGCACCCGGCGUGGUGCAUAGCACACAGCAGUUGCUCAAUAAAUGUUUGUUGGAUUAAAUCCUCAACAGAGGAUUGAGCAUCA | 0.202
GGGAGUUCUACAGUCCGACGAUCACAUCUCCAGCAGCAGACAACAUAGAAAAGGAGGCGCUUCCUCGUUAUGAGCCAAUUCCAUUCCGUGCUUCUAUGAACGAGUCCACUCCCACUGGUAUUACUGACCAUAUUGCCCAAGGACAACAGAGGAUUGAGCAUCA | 0.215
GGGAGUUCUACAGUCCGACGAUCAUGAAAAGACUGUGACCUCCUCUGGGGUUUGGUGGCAAGUCUGGGCUGGCAGAGAUGGGACCGCUUCAGGUUUUGCACCGGCACUUUGAUGACACUCUCCUCUGGUGAUGUUUUAUUUACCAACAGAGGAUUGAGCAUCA | 0.388
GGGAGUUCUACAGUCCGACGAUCAACAUUGUAUCAUAGUUCAUUCAUUUGCAGUGGAUCUUUGUUCCUUUUUACUGUGGUAAUUUCCGAAAUGAGUGUCAAGUUUGAAAUUAGAUCUGCUAAGUUGGGGUUUUGCUGCUUGAACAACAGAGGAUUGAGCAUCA | 0.52
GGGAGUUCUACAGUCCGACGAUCGCUACUGCAGCUGCACCUAUGAUUGGUUAUCCAAUGCCAACAGGAUAUUCCCAAUAAGACUUCCGAAGUAUAUGUAAAUGUCUGUUUUUCAUAAUUGCUCUUUAUAUUGUGUGUUAUCUGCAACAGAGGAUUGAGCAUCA | 0.333

Mixed results
Molecule | target | assay | test system | setting | how to read | measurement | value
PhoQ, residues 284 288 289 292 302 303 TSTLRA | PhoP, residues 12 14 15 18 19 NFCKL (Escherichia coli, UniProt P23836) | Sort-seq, refers to: YFP reporter | E. coli | PhoQ-PhoP variant library, added: 10 µM Mg2+ | relative to: high Mg2+ state, higher = stronger signaling | fold induction | 5.43

Repeated from above (block 1):
Strand | RBNS enrichment (R)
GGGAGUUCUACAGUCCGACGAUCAAAUGCCAGCCAGGUGCUGGCUGUGGGCUUUCCCUCCUCAACACCCUUAUUUAGAAAGGAAACUGUGUGGGGGGAGAUGCAGGCCUGAGCCCCAUAGCGAGCUUGCCUUUUGGAAUUCUCGGGUGCCAA | 0.415
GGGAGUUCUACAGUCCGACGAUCAACCAUAGGCCUGAAGUUCACAUUGGGUCUUUAAAUCUUUUAGAUAUAUACUGGUCAUUUCAGAAAAUUCUUCAUAGUGGUAUUGGCCUUAUAUUUAACUUUUUUUUUAUUGGAAUUCUCGGGUGCCAA | 0.593
